Measurements gathered from unrelated publications.
Each numbered part is a random draw from the data of one study; scales do not carry over between parts. Positions count from the first letter of the parent shown.

Sample 1
Target: CCNE1, cyclin fold, Cln2 fusion (human)
Technique: yeast growth competition, sequencing
Sample: yeast
Setting: strong parent motif
Baseline: not given
Reading: higher = stronger binding
Parent: INSM1 docking peptide (human); PKAIRKLHFEDEV
| Change | normalised enrichment score |
| --- | --- |
| K2Q | 3.97 |
| K6F | 3.22 |
| H8S | 4.53 |
| D11W | 3.96 |
| E10Q | 3.03 |
| L7C | 0.392 |
| H8P | 0.735 |
| L7K | 0.275 |
| A3L | 0.661 |
| D11I | 3.37 |
| I4L | 1.88 |
| H8N | 5.24 |
| I4M | 3.95 |
| L7N | -0.00931 |

Sample 2
Target: Ras GTPase-activating protein-binding protein 1, full length (G3BP1, Homo sapiens, UniProt Q13283)
Chain of UniProt Q13283 (whole entry, looked up): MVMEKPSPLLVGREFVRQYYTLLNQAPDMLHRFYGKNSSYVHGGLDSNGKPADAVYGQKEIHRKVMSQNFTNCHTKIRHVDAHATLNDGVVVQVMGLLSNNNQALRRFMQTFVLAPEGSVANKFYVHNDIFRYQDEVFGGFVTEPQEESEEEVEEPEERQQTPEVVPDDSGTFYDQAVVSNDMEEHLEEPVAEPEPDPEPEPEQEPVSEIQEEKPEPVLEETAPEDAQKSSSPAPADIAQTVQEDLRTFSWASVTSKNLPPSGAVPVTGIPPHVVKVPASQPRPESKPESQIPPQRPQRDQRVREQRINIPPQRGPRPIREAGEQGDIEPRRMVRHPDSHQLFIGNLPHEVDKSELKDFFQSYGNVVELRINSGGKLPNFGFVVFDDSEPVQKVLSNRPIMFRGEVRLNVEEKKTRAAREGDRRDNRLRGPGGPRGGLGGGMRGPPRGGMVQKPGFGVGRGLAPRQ
Technique: RNA Bind-n-Seq
Form: RNA
Sample: in vitro
Concentration: 200 nM
Setting: whole 134-nt RNA, ends assumed
Together with: 150 mM KCl
Baseline: input library
Reading: higher = stronger binding
Shared flanks, not repeated: GGGAGUUCUACAGUCCGACGAUC … UGGAAUUCUCGGGUGUCAAGG
| Oligonucleotide | log2 enrichment |
| --- | --- |
| GCAGGAAGUAAAAACACAUGGAAAUGCUUCGGAUAGUGGCAGGGGUGGGGGUUGCUAAGGAAAGGGUGGGAUGGGAGUGGGUAAAGAGUU | 0.833 |
| UUACACAAACCUGCAGGUGAAGACAGGCCAGCGGACCCUCAUCAACCCCAAGCCCUGUGGCCAGUUUUGCUGCUGUGAAGUGCUGGGCUG | -0.475 |
| CUCAAGUCCUGUGCUACACAUCGUAUGUACCGAAUCGGAAGGGGAAGGGAAGGAAAGUAUUAUGUUACGCCGUUCGGAUCUGCACUUCCA | -0.0846 |
| UGUGCUACACAUCGUAUGUACCGAAUCGGGGUUUUUGGGGAAAAAAAGGGGUUUUUUUGGGGAAAGUAUUAUGUUACGCCGUUCGGAUCU | -0.118 |
| CUGUGCUACACAUCGUAUGUACCGAAUCGGGCCCCCCCGGGCCCCCCCGGGGCCCCCCCGGAAAGUAUUAUGUUACGCCGUUCGGAUCUG | -0.563 |
| UCCAUGCAGGUGGGCAUCUUUGGGAAGUGGGGCAAGGGGGGGAUAGGGAGGGGGGUAACACUUUGGGAACAGGUGGUCCCAGGUCGUUUC | 1.42 |
| CUCAAGUCCUGUGCUACACAUCGUAUGUACCGAAUCGGCCCGGCCCGGGCCCGGAAAGUAUUAUGUUACGCCGUUCGGAUCUGCACUUCC | -0.929 |
| UCCUGUGCUACACAUCGUAUGUACCGAAUCGGGUUUUUGGGGUUUUUGGGGUUUUUGGGGAAAGUAUUAUGUUACGCCGUUCGGAUCUGC | 0.403 |

Sample 3
Target: Interferon regulatory factor 5, full length, phosphomimetic (IRF5, Homo sapiens, UniProt Q13568-2, residues 1-514, S451D/S453D/S456D/S462D)
Technique: protein-binding microarray
Form: double-stranded DNA, one strand shown
Sample: in vitro
Concentration: 940 nM top
Setting: 60-bp whole probe
Together with: salmon DNA 0.4 mg/ml
Baseline: random background probes
Reading: higher = stronger binding
Shared flanks, not repeated: GCCTAGCAC … GTCTTGATTCGCTTGACGCTGCTG
| Oligonucleotide | fitted relative affinity |
| --- | --- |
| TCACATATCGGGGTGCGCACTGTGCTA | 0.701 z-score |
| TTAGGACTACTACTGCTTTAGTGCTAG | -0.0308 z-score |
| TTAGGTCTCTGTCTCGGTTAGTGCTAG | 2.85 z-score |
| TTAAGACTGCTTATCCTTTAGTGCTAG | -0.0365 z-score |
| TTATATATCAGTCTCGATTAGTGCTAG | 3.41 z-score |
| TTACGACTGGGGTTTCGGTTAGTGCTA | 6.81 z-score |
| GACGGAGTGGGTCTCGGGACGTGCTAG | -0.182 z-score |
| ATAGGACTGGGACTGGGTTAGTGCTAG | -0.372 z-score |
| GACGGTTTCGATACTGGGGACGTGCTA | 12 z-score |
| TTAGGTTTCGACTTTCGGTTTGTGCTA | 8.93 z-score |
| GACGGACTGGACTACCGGGACGTGCTA | -0.706 z-score |
| GGGAAAATGGCTTTGCAGATGTGCTAG | -0.456 z-score |
| GGCGATCTCAGTCTCGAGACGTGCTAG | 0.965 z-score |
| TCAAGTCTGGGAGATGAAACTGTGCTA | -0.238 z-score |

Sample 4
Target: RNA binding protein fox-1 homolog 2, RRM domain, GST-SBP tag (RBFOX2, Homo sapiens, UniProt O43251-10, residues 100-194)
Technique: RNA Bind-n-Seq
Form: RNA
Sample: in vitro
Concentration: 365 nM
Setting: natural RNA segment, single round, ends assumed
Baseline: no-protein control
Reading: higher = stronger binding
Shared flanks, not repeated: GGGAGUUCUACAGUCCGACGAUC … UGGAAUUCUCGGGUGCCAA
Residues (chain): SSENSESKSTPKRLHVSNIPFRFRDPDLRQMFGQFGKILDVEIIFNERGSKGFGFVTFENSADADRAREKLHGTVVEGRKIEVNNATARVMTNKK
| Oligonucleotide | RBNS enrichment (R) |
| --- | --- |
| CUUUUGUGUGUGCGCAUGCUGCCCUCUUAACUGCUUUUAGUAUUCAGAAAGGUUCCAUUUAUGUUUUACUCCUGAAAGUGAAACCCUCUUAGGCAACUUGUUUCAUAUUC | 3.03 |
| AGCAGAGUGUGCAUGGCAAGGAAAUGAGUCACCUCCUUGGGGGAUGGUGCUGUUUUUAUGAAAACCUCUGAUCCUUGGUGUCCUUUAAUUGAUCUGUUCAACAAAUAUUU | 13.3 |
| AGAUUCUUUGAUGCUGGACUCAGGAGGGAAAUCAUUAGCCAACUGUUGACUUACUUAUAGCUAGAUGUCUAUGUGAGAAAGUAUAAUAUAUAUAUAUACACAUAUAUAUG | 0.712 |
| CCAUCACAGGCCUGGAGGCCUAGGAGGGAAAAAAUGGUUUUGUGGGCCAGGCCCAAGGUCCCCUUGCUGUGUGCAGCCCAGGGACUUGGUACCAUGCAUCCCAGCUGCUC | 0.242 |
| GUCAGUGCUUUGUUUAGAUGAUGACUUAAGACUUUUCAGCCUGUUUUACACACCCCAGCUCCCGUUAAAUUCUCCUGUGACUGCUAACAAACCCAUGUCUGCUUUCAGAC | 0.51 |
| CAGUCUCUGGGAGACUUUCCCUAAGAGGCGACUUCCUCUCCAGCCUUCUCUCUCUGGUCAGGCCCACUGCAGAGAUGGUGGUGAGCACAUCUGGGAGGCUGGUCUCCCUC | 0.302 |
| CACGGCACAUUUGGACAUUUCCAGAACUACCAUGAGAUGGUUUAGACGGGAAUUCAUGCAAAUGAGGGGUCAAAAAUGGUAUAGUGACCCCGUCCACGUCCUCCAAGCUC | 0.554 |
| UUAAAAAUGUGGACUUCAUAGGAAGGCGUGAGUACAAUUAGUAUAAUGCAUAACUCAUUGUUGUCCUAGAUAUUUUGAUAUUUACCUUUAUGUUGAAUGCUAUUAAAUGU | 0.908 |
| UAUACAAAGGUACUUGCCCUUUCCCUUUGUAAACUACAUUUGACAUGGAUUAAAACAGUAUAAACAACUGCUGUCUGUGUUUGAAGAUCUUCUGGGAAGGUGGUGGCUGA | 0.348 |
| UGGAGUAUACACUCUGACUUCUACCUAUGCUUCCUGGAUCCACCACCAUGUGGCAGAGCUCCAGCCUCGAGUUGUCCCCCAGACUCAGGAGUCCCAGCCGGAUGGCCACC | 0.292 |
| UUCAAAGAACAUUGAGUUGUAUUUAAUCAGCGUGUACUCCAUUUGCAUUGAAGCAUUAAAAAUUAUUUUUCUUAAAAUCUCUUUAAGGCCUUCUUGUUGCUGUUAGAAUA | 0.779 |

Sample 5
Target: Centromere-binding protein 1, full length, His-tagged (CBF1, Saccharomyces cerevisiae, UniProt P17106, residues 1-351)
Chain of UniProt P17106 (whole entry, looked up): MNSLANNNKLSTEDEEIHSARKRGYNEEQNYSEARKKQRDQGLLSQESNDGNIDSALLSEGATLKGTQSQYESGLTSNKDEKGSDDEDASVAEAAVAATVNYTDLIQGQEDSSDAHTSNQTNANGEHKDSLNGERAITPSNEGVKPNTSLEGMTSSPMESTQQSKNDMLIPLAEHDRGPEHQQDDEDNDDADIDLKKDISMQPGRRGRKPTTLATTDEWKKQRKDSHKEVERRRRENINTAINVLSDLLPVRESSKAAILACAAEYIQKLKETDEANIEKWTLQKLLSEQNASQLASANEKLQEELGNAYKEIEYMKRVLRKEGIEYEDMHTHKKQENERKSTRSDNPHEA
Technique: competition protein-binding microarray
Form: double-stranded DNA, one strand shown
Sample: in vitro
Concentration: 2 µM
Setting: whole 60-bp probe, lowest competitor level
Together with: Pho4 competitor, 0.05 µM
Reading: higher = stronger binding
Shared flanks, not repeated: … GTCTTGATTCGCTTGACGCTGCTG
| Oligonucleotide | fluorescence intensity |
| --- | --- |
| CACCGGATATTGAATCACATGGGCTTTCAGATTTCA | 835 a.u. |
| ACCCGGTGCAGGTTCGTCGTGCCGAAAGACTCACCA | 67.5 a.u. |
| CAACACTGGCGGGTCCACGTGTTGGCTAGCCTCACC | 581 a.u. |
| AAAGCGGTAATTTTTCACGTGCCATCACATATCTAT | 1350 a.u. |
| CGGGGTTAAGTTTGTCACGATACTTGCTTGCAGCAG | 169 a.u. |
| TGTCTCCACAGTACCAACGTGCGATATCTGCTTCTC | 89.7 a.u. |
| TTTCATTCAGACCAACACGTGGTGAATTCACATAGT | 1350 a.u. |
| AAATTACTAAGTTGACACGTGGGTGACGCCGTATGA | 1150 a.u. |
| GGTGCCCAGAGTAAAGGCGTGATGGTGCAAAGACTC | 101 a.u. |
| CTTCTGTAAATTTGACACGTGGGTGGACGCGCCCCG | 1110 a.u. |
| TCATTGTTACAGCCGCCCGTGGCCGTGTTCCACGGA | 52.4 a.u. |
| AGGTGCCTTAAAGAACACGCGGACACACTTGTTTGG | 108 a.u. |
| GTCTGAAGTAAAAAGCACGATGATCGTAGTCCACTT | 95.7 a.u. |
| CTGGTACTGAAGAATCACATGTGTGGAACGGTATAG | 516 a.u. |
| TGCGCAACAACTTGTGGTGTGGGTGTATGTCTAGAA | 69 a.u. |
| ATCGTCAAAAGAGTAAACGTGCCGAGCAAAATCATC | 127 a.u. |
| CGGGGTTAAGTTTTTCACGTGCCTTGCTTGCAGCAG | 900 a.u. |

Sample 6
Target: Histone acetyltransferase KAT6A, both winged helices, GST fusion (KAT6A, Homo sapiens, UniProt Q92794, residues 1-181)
Technique: protein binding microarray
Form: double-stranded DNA, one strand shown
Sample: in vitro
Concentration: not given
Setting: 8-mer, flanks averaged, mean of 2 arrays, mostly near background
Baseline: not given
Reading: higher = stronger binding
Construct (chain): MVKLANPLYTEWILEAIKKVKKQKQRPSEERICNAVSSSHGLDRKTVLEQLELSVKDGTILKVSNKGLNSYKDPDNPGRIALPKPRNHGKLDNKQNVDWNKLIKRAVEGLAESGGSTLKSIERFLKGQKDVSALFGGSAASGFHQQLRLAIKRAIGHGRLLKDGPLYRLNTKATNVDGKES
| Oligonucleotide | E-score |
| --- | --- |
| AACCTTTA | -0.187 |
| ATCTCCGA | 0.0922 |
| GGTGCGAC | 0.155 |
| AGTCAACG | -0.0616 |
| AGTCGTTA | -0.113 |
| ACAGGAGG | -0.204 |
| GCGTCTCC | 0.278 |
| ACTGTACT | -0.22 |
| CTTCAGCC | -0.209 |
| CACATAGC | 0.0595 |
| CGAATCTC | 0.0982 |
| CTAGTAAC | -0.169 |
| GGCTGAAC | 0.117 |
| ATGTGTAC | -0.0483 |
| CGTTCGAA | 0.001 |
| ACCTGCCC | -0.0772 |
| AGTTAGGA | -0.0915 |

Sample 7
Target: Eukaryotic initiation factor 4A-I (EIF4A1, Homo sapiens, UniProt P60842, residues 1-406, full length assumed)
Chain of UniProt P60842 (whole entry, looked up): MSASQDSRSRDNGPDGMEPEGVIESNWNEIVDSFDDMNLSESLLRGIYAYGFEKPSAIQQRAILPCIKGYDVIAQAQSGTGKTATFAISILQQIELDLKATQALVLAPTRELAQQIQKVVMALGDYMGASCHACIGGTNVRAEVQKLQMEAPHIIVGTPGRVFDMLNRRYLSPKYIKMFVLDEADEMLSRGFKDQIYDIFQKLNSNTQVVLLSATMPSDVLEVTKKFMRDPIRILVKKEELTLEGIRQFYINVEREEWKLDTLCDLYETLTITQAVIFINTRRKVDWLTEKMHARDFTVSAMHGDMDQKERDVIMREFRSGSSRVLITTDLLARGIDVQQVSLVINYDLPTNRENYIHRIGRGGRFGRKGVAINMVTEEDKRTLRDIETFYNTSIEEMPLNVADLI
Technique: RNA Bind-n-Seq
Form: RNA
Sample: in vitro
Concentration: 15 pmol
Setting: 4-mer, random 30-nt RNA, single round
Together with: DMSO vehicle, 2 mM AMP-PNP
Baseline: input library
Reading: higher = stronger binding
| Oligonucleotide | 4-mer enrichment |
| --- | --- |
| CAAC | 1.5 fold |
| UGGG | 0.837 fold |
| GGCU | 0.778 fold |
| AUCG | 0.504 fold |
| GAAU | 0.948 fold |
| CGUA | 0.582 fold |
| GCAG | 1.21 fold |
| CUCU | 1.11 fold |
| ACGG | 1.31 fold |
| UAGU | 0.69 fold |
| GAAG | 1.21 fold |
